Published values from different studies.
Cell line: HEL

C#C[C@@]1(O)[C@@H](CO)O[C@@H](n2cnc3c(N)ncnc32)[C@@H]1O
CC50 (cell growth or viability): 0.73 µM

Nc1nc(O)c2ncn(COC(CO)CO)c2n1
CC50 (cell growth; 3 days): ≥ 445 µM

C[C@H](NC(=O)[C@]1(Cc2ccccc2)CCN1C(=O)OCc1ccccc1)C(=O)NC(C)(C)C
minimum cytotoxic concentration (microscopic cell morphology): > 100 µM

O=C1c2ccccc2C(=O)N1Cc1cn(-c2nc(O)c3ncn([C@H]4C[C@H](O)[C@@H](CO)O4)c3n2)nn1
minimum cytotoxic concentration (cell morphology): > 210 µM

O=c1ccn(Cc2cccc3ccccc23)c(=O)n1CCCCCOc1ccc(Br)cc1
minimum cytotoxic concentration (cell morphology): > 100 µM

C[C@H](NC(=O)[C@H](Cc1ccccc1)NC(=O)OCc1ccccc1)C(=O)NC(C)(C)C
minimum cytotoxic concentration (microscopic cell morphology): > 100 µM

OC[C@H]1O[C@@H](n2cnc3c(O)nc(-n4cc(-c5ccccc5)nn4)nc32)C[C@@H]1O
minimum cytotoxic concentration (cell morphology): > 250 µM

O=c1c2ccccc2n(CCCCCOc2ccc(Br)cc2)c(=O)n1Cc1cccc2ccccc12
minimum cytotoxic concentration (cell morphology): > 100 µM

CC(C)CNC(=O)[C@H](C)NC(=O)[C@@]1(Cc2ccccc2)CCN1C(=O)OCc1ccccc1
minimum cytotoxic concentration (microscopic cell morphology): > 100 µM

OCc1cn(-c2nc(O)c3ncn([C@H]4C[C@H](O)[C@@H](CO)O4)c3n2)nn1
minimum cytotoxic concentration (cell morphology): > 290 µM

Nc1ncnc2c1ncn2CCOC(Cc1ccccc1)CP(=O)(O)O (centres unmarked)
CC50 (cell growth or viability; 72 h): 247 µM

Excerpt of the above:
O=C1c2ccccc2C(=O)N1Cc1cn(-c2nc(O)c3ncn([C@H]4C[C@H](O)[C@@H](CO)O4)c3n2)nn1
minimum cytotoxic concentration (cell morphology): > 210 µM
